Published values from different studies.
Numbers after ± are the reported error.

Molecule | organism | test | test system | conditions | IC50
CNC[C@H](O)[C@@H](O)[C@H](O)[C@H](O)CO.[O]=[Sb](=[O])[OH] | Leishmania braziliensis | amastigote growth, microscopic counting | MHOM/BZ/82/M2903 | 48 h | 12.2 ± 2.12 µM
O=C(O)COc1c2c(c(OCC(=O)O)c3c1C1CC3c3cc4c(cc31)C1CC4c3ccccc31)C1CC2c2cc3c(cc21)C1CC3c2ccccc21 | measles virus | viral infection, flow cytometry | A549, vaccine strain GFP | 2 days, virus pre-incubated 30 min 37 °C | 70.4 µM
O=c1c(O)c(-c2ccccc2)oc2cc(O)cc(O)c12 | Human betaherpesvirus 5 | viral replication, absorbance | human Fibroblast | 72 h | > 40 µM
O=P(O)(O)C(F)P(=O)(O)O | Trypanosoma cruzi |  | Vero cells, intracellular amastigotes | day 3 post-infection | > 10 µM
CCCCOc1c(OC)cc(NC(C)CCCN)c2nc(C(C)(C)C)ccc12 (centres unmarked) | Staphylococcus aureus | bacterial growth | MRSA ATCC 33591 |  | > 20 µg/mL
COc1c(O)cc2oc(-c3ccccc3)cc(=O)c2c1O | Betacoronavirus 1 | viral replication | HRT-18, OC43 | 24 h | 18.7 µM
CCCCCCCCOc1c(OC)cc(NC(C)CCCNC(=O)C(N)Cc2cc3ccccc3[nH]2)c2nc(C(C)(C)C)ccc12 (centres unmarked) | Staphylococcus aureus | microbial growth | ATCC33591 MRSA | drug-resistant strain | 8.31 µg/mL
C[C@@]1(O)[C@H](O)[C@@H](CO)O[C@H]1n1ccc(N)nc1=O | Norwalk virus | viral replication, inhibitor | RAW264.7 |  | 15.7 µM
Nc1cc[c]([Hg][S]c2nc(N)nc3c2ncn3[C@@H]2O[C@H](CO)[C@@H](O)[C@H]2O)cc1 | Candida albicans | biofilm formation, XTT | SC5314 | 24 h, 37 °C | 1.94 µM
CCCCCCCOc1c(OC)cc(NC(C)CCCNC(=O)C(N)CCCN)c2nc(C(C)(C)C)ccc12 (centres unmarked) | Staphylococcus aureus | bacterial growth | MRSA ATCC 33591 |  | > 20 µg/mL
O=Cc1cn(Cc2ccccc2)c2ccc([N+](=O)[O-])cc12 | Trypanosoma brucei gambiense |  | trypomastigotes, IL1922 |  | > 89 µM
CO[C@H]1C[C@H](O[C@H]2CC[C@@]3(C)[C@H](CC[C@@H]4[C@@H]3CC[C@]3(C)[C@@H](C5=CC(=O)OC5)[C@@H](OC(C)=O)C[C@]43O)C2)O[C@@H](C)[C@@H]1O | transmissible gastroenteritis virus | viral replication, immunofluorescence | ST cells | 6 h post-infection, pretreated 1 h | 0.166 ± 0.008 µM
O=C(O)[C@H]1O[C@@H](Oc2cc3oc(-c4ccccc4)cc(=O)c3c(O)c2O)[C@H](O)[C@@H](O)[C@@H]1O | Human betaherpesvirus 5 | viral replication, absorbance | human Fibroblast | 72 h | 3 µM
C[C@@H]1CC[C@H]2[C@@H](C)C(=O)O[C@@H]3O[C@@]4(C)CC[C@@H]1[C@]32OO4 | Leishmania tarentolae | viability, resazurin | promastigotes, Schneider's medium | 48 h, 26 °C, together with: 10% FCS | 23.2 ± 15.6 µM
Cc1cccc2c1C(=O)C(O)=C(CC(C)CCCCCC(F)(F)F)C2=O (centres unmarked) | Plasmodium berghei | parasite growth, luciferase | Huh-7 | 48 h, liver stage | 4.45 µM
N#C[C@]1(CO)O[C@@H](n2cnc3c(N)nc(N)nc32)C[C@@H]1O | Hepatitis B virus | Southern blot | Huh-7 transfected, entecavir-resistant L180M/S202G/M204V |  | 0.0696 µM
CCCCCCOc1c(OC)cc(NC(C)CCCNC(=O)C(N)CCCNC(=N)N)c2nc(C(C)(C)C)ccc12 (centres unmarked) | Staphylococcus aureus | microbial growth | ATCC33591 MRSA | drug-resistant strain | 8.95 µg/mL
nanaomycin | Candida albicans | biofilm formation, XTT | SC5314 | 24 h, 37 °C | 0.609 µM

Molecule | organism | test | test system | conditions | IC50
CCCCCCCC(F)(P(=O)(O)O)P(=O)(O)O | Trypanosoma cruzi |  | Vero cells, intracellular amastigotes | day 3 post-infection | > 10 µM
O=C1C[C@@H](c2ccc(O)cc2)Oc2cc(O)cc(O)c21 | human cytomegalovirus | viral replication, titre reduction | HEL fibroblasts, Towne |  | > 40 µM
Nc1nc2c(ncn2COCCO)c(=O)[nH]1 | Human alphaherpesvirus 1 | viral replication, plaque reduction | HFFF, 17 thymidine kinase-deleted, GFP | 3 days | 73 ± 18 µM
C=C[C@]1(CO)O[C@@H](n2cnc3c(N)nc(N)nc32)C[C@@H]1O | Human immunodeficiency virus 1 | cytopathic effect, MTT | MT4 |  | 0.0043 µM
CCCCCCCCCCOc1cc2c(O)c(C(=O)OCC)cnc2cc1OCC | Plasmodium falciparum | parasite proliferation, SYBR Green | 3D7 | 72 h | 0.0043 µM
CCCCCCCOc1c(OC)cc(NC(C)CCCNC(=O)C(N)CCSC)c2nc(C(C)(C)C)ccc12 (centres unmarked) | Staphylococcus aureus | microbial growth | ATCC33591 MRSA | drug-resistant strain | 3.02 µg/mL
COc1ccc(CCN(C)CCCC(C#N)(c2ccc(OC)c(OC)c2)C(C)C)cc1OC (centres unmarked) | Plasmodium falciparum | parasite proliferation, SYBR Green | 3D7 | 72 h | 3.8 µM
CCCCCCOc1c(OC)cc(NC(C)CCCNC(=O)C(N)Cc2cnc[nH]2)c2nc(C(C)(C)C)ccc12 (centres unmarked) | Staphylococcus aureus | microbial growth | ATCC33591 MRSA | drug-resistant strain | 4.42 µg/mL
meglumine antimoniate | Leishmania braziliensis |  |  | promastigotes | 25.6 ± 1.7 µM
CCCCOc1c(OC)cc(NC(C)CCCNC(=O)C(N)CCCCN)c2nc(C(C)(C)C)ccc12 (centres unmarked) | Staphylococcus aureus | bacterial growth | MRSA ATCC 33591 |  | > 20 µg/mL
c1ccc(Oc2ccc(Nc3c4c(nc5ccccc35)CCC4)cc2)cc1 | Leishmania donovani |  | DD8 resistant line, intracellular amastigotes |  | 4.94 ± 0.69 µM
O=c1cc(-c2ccc(O)cc2)oc2cc(O)cc(O)c12 | human cytomegalovirus | viral replication, titre reduction | HEL fibroblasts, Towne |  | 6.4 µM
NCC(O)CN.Oc1c(Cl)c(Cl)c(Cl)c(Cl)c1Cl | Candida albicans | biofilm formation, XTT | SC5314 | 24 h, 37 °C | 2.88 µM
CC(C)C12C=CC(C)(CC1)OO2 (centres unmarked) | Leishmania tarentolae | viability, resazurin | promastigotes, Schneider's medium | 48 h, 26 °C, together with: 6 µM hemin | 40.9 ± 10 µM
CC[C@H](C)[C@H](NC(=O)[C@H](CC(C)C)NC(=O)[C@H](CCC(=O)O)NC(=O)[C@H](CCC(=O)O)NC(=O)[C@@H](NC(=O)[C@H](CCCCN)NC(=O)[C@H](CCCCN)NC(=O)[C@@H](NC(=O)[C@H](Cc1ccc(O)cc1)NC(=O)[C@H](CCC(=O)O)NC(=O)[C@H](CCC(=O)O)NC(=O)[C@@H](NC(=O)[C@H](CCCCN)NC(=O)[C@H](CCCCN)NC(=O)[C@H](CC(=O)O)NC(=O)[C@H](Cc1c[nH]c2ccccc12)NC(=O)[C@H](CCC(=O)O)NC(=O)[C@H](CCC(=O)O)NC(=O)[C@H](Cc1c[nH]c2ccccc12)NC(=O)[C@@H](NC(=O)[C@@H](N)CCSC)[C@@H](C)O)[C@@H](C)CC)[C@@H](C)O)[C@@H](C)CC)C(=O)N[C@@H](CCCCN)C(=O)N[C@@H](CCCCN)C(=O)N[C@@H](CO)C(=O)O | HIV-1 | virus neutralization | CZA97 |  | 0.0068 ± 0.0016 µM
CCCCCCOc1c(OC)cc(NC(C)CCCNC(=O)C(N)C(C)CC)c2nc(C(C)(C)C)ccc12 (centres unmarked) | Staphylococcus aureus | microbial growth | ATCC33591 MRSA | drug-resistant strain | 10 µg/mL
guanidine hydrochloride | coxsackievirus B3 | cytopathic effect | HeLa, 97927 I1207T | 48 h | 725 µM

Repeated from above:
Molecule | organism | test | test system | conditions | IC50
CCCCCCCOc1c(OC)cc(NC(C)CCCNC(=O)C(N)CCCN)c2nc(C(C)(C)C)ccc12 (centres unmarked) | Staphylococcus aureus | bacterial growth | MRSA ATCC 33591 |  | > 20 µg/mL
O=P(O)(O)C(F)P(=O)(O)O | Trypanosoma cruzi |  | Vero cells, intracellular amastigotes | day 3 post-infection | > 10 µM
O=C1C[C@@H](c2ccc(O)cc2)Oc2cc(O)cc(O)c21 | human cytomegalovirus | viral replication, titre reduction | HEL fibroblasts, Towne |  | > 40 µM
C[C@@]1(O)[C@H](O)[C@@H](CO)O[C@H]1n1ccc(N)nc1=O | Norwalk virus | viral replication, inhibitor | RAW264.7 |  | 15.7 µM
